Measured values pooled from the literature.
Each numbered part is a random draw from the data of one study; scales do not carry over between parts.

Set 1 — method: aptamer microarray, sandwich; molecule type: DNA with 2'F-ANA; sample: in vitro; concentration: 200 nM; added: Cy3 exosite-II aptamer, 400 nM; direction: higher = stronger binding; endpoint: mean fluorescence intensity; strand: GGTTGGTGTGGTTGG
Target: Prothrombin, mature alpha-thrombin (F2, Homo sapiens, UniProt P00734)
Notes: whole 15-mer aptamer, many near background
2'F-ANA at 1 4 7 9 10 13 14 15: 44.9 a.u.
2'F-ANA at 1 2 4 5 7 8 12 14 15: 49.8 a.u.
2'F-ANA at 6 7 10 11 13 14: 128 a.u.
2'F-ANA at 1 2 4 5 6 9 10 12 14 15: 47.6 a.u.
2'F-ANA at 1 2 3 4 5 6 8 10 14: 50.8 a.u.
2'F-ANA at 3 5 11 13 14 15: 54.8 a.u.
2'F-ANA at 2 4 5 7 8 11 12 14: 69.4 a.u.
2'F-ANA at 1 3 4 8 9 11 12 14 15: 78.3 a.u.
2'F-ANA at 4 6 7 10 11 15: 72.8 a.u.
2'F-ANA at 1 2 3 8 10 12 14 15: 58.9 a.u.
2'F-ANA at 1 5 6 8 10 11 14: 49.8 a.u.
2'F-ANA at 1 2 3 4 5 6 7 9 13 15: 50.7 a.u.
2'F-ANA at 1 4 6 7 8 9 10 11 13 15: 50.3 a.u.
2'F-ANA at 5 6 7 9 10 11 12 13 14 15: 46.2 a.u.
2'F-ANA at 1 4 5 6 10 11 12 13 14: 46.8 a.u.
2'F-ANA at 1 3 4 5 6 8 10 12 13 15: 48.8 a.u.
2'F-ANA at 3 4 9 10 14: 341 a.u.
2'F-ANA at 1 2 3 4 5 10 11 12: 53.5 a.u.
2'F-ANA at 1 2 4 5 6 12 13 14: 82 a.u.
2'F-ANA at 1 2 5 9 10 11 12 13 14: 49.5 a.u.
2'F-ANA at 2 3 11 12 14 15: 458 a.u.

Set 2 — method: RNA Bind-n-Seq; molecule type: RNA; sample: in vitro; concentration: not given; baseline: input RNA pool; direction: higher = stronger binding; endpoint: bound/input enrichment
Target: RING finger protein unkempt homolog, zinc fingers 1-6, GST-SBP tag (UNK, Homo sapiens, UniProt Q9C0B0, residues 30-357)
Notes: RNA with constant flanks, human and mouse sites, ends assumed
All sequences stand within: GGGAGUUCUACAGUCCGACGAUC … CAACAGAGGAUUGAGCAUCA
Target sequence (chain): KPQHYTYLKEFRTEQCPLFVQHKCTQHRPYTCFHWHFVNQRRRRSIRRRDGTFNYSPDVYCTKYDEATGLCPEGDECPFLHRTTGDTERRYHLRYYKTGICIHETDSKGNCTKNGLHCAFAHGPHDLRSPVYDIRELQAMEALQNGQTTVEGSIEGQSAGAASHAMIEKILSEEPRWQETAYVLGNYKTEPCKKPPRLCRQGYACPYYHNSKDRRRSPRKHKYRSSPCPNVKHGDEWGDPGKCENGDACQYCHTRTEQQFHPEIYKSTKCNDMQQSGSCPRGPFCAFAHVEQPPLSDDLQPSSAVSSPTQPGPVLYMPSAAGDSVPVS
AGAGAACAAAUCUCAGUGAAAUCAAGUGUUCAGGAAAUACCACGUACUAACGGGUUGGUAUCCGUUGAUGAAGAAUCCUAUGGUGCACUUUAUCAAGCUACUGUAGAAACAACCAGAAGU: 0.254 ratio
UGUGGCGAUUCAGAUAAAGGAUUUGUUGUUAUUAAUCAAAAGGGAAUUGACCCCUUUUCCUUAGAUGCUCUUUCAAAAGAAGGCAUAGUUGCUCUGCGCAGAGCUAAAAGGAGAAAUAUG: 0.292 ratio
GUGGCAGUAGAUUCUACAGGCACGUACAUGGCCACCUCUGGCCUAGACCACCAGCUGAAGAUCUUUGACUUGCGAGGGACGUACCAGCCUCUGAGCACUCGGACCCUGCCCCAUGGAGCA: 0.126 ratio
CGUGCUUUUGAAGACGAUGAUAUCACGCAUGUUGAAGGAAGUGUAGAUCCCAUCCGAGACAUAGAGAUAAUUCACGAGGAGCUCCAGCUGAAGGACGAGGAGAUGAUUGGGCCCAUUCUA: 0.711 ratio
GAGUCAUGCAACGGUUCACACCAGGCAAGGGGGGAUCCACUCAGUGGAGCAUCUGAUAGGAUGAAAGAAGCAUCAGUCAACCCAUCGGGAGCCCGAGAAGAACAAGAGGCUCACACUGAC: 0.104 ratio
UAUUUGUGUAAAGUAUGCAUGCAGUCUUGUACUGUGACCUAAGAACAAAACUGUAACUGCAUUAGAAACCAUGAAAAAAUUAGAUAUUGUUUUGUGACUUUUAGACAGUGGUAAAUAUAG: 5.34 ratio
GUUGGCUUGUCAGAUGAACUGGCUAAACUGGAUGCAUUUGUAGAAGGAGUGGUUAAGAAAGUAGCUCAAUACAUGGCUGAUGUAUUGGAAGAUAGCAAAGACAAAGUUCAAGAGAAUCUG: 0.609 ratio
CUGGGGAGUGUCCAGGGUUGGACAAAGCUCCACAGUGACUCUUUACGUAUGGAUGGGGACAUAGAUAAGUUUAUAUCUAGGUGAAUACUAACUUGUUCCUUACUAUGAAUUCUAAAGUAC: 0.0901 ratio

Set 3 — method: RNA Bind-n-Seq; molecule type: RNA; sample: in vitro; concentration: 365 nM; baseline: no-protein control; direction: higher = stronger binding; endpoint: RBNS enrichment (R)
Target: RNA binding protein fox-1 homolog 2, RRM domain, GST-SBP tag (RBFOX2, Homo sapiens, UniProt O43251-10, residues 100-194)
Notes: natural RNA segment, single round, ends assumed
All sequences stand within: GGGAGUUCUACAGUCCGACGAUC … UGGAAUUCUCGGGUGCCAA
Construct (chain): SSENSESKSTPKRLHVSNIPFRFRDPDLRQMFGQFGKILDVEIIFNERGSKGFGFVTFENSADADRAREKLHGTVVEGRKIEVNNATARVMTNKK
AGCUGCAGGUGGUUUCAUAGGGUAAAAUCCAAGAAAAGAGAAGGAUGUGUGGGGUUUCUAUUAGAAGAUAAUUUUGUUCUCAUUUUACCUUUUCUUUUAUGAUCCUUCUC: 0.6
UGACACGGUUGAGUGCUUCUGGGCCGGAAUCCUUAUGGGAAAUCACGUCAAUAAAUUUUAAACGCUCAGCGGUGUCCUGGAUGUGGUCUGUUUUUCAGGCCAUGCGUCUU: 0.227
AAUACAGCCUUCCAUCUUCACUCCAGUUAGGGAUCCUUUCAAAGUCUCCUUCACAGUGAGGAAAAAGAGAAGGGUAGAAACUUUAGGGAGCCGGAUUUGUGUAUCAAUUC: 0.256
AUGCAGAAUACAGACCUUGAGGUUGGCUACUGUUCAAGACAGCUUCAGUCUCUCUACCACAUUCCAUGUAAACCUAUGGUGAAGUAACACCAGAAAAAAGAGCCUGAGAG: 0.476
ACUGGUGAGCGUUGGAACCUUGUCGUCUGGCUCCGAGCCUCUGCUGUGCGCAACAGCCUCUGUCCCAUGUGCUGCCGUGAGCCCGACCUGGUGGACGAUGAGGGCUUCGG: 0.337
GGAAUUGUGCCUACUUAGGAGUGCCCCUCCAAUUAAUUACAUGUGUCCAAGAAUAAUCCAAGCUAGAGACACAAGGUGGGAAAACAUUUCAAAAAAAAAAAGUCCUCUUA: 0.49
UCUCCUCCUGACCCCAGUGGCUGCGGUGAGGGGAACCACCCUCCCUUGCUGCACCAGUGGCCAUUAGCUCCCGUCACCACUGCAACCCAGGGUCCCAGCUGGCUGGGUCC: 0.309
AUUCAAGGUCACCAGGUACAGUUGUACAGGUUGUACACUGCAGGAGAGUGCCUGGCAAAAAGAUCAAAUGGGGCUGGGACUUCUCAUUGGCCAACCUGCCUUUCCCCAGA: 0.498

Set 4 — method: RNA Bind-n-Seq; molecule type: RNA; sample: in vitro; concentration: 20 nM; notes: 6-mer, flanks averaged, single round; added: 150 mM KCl; baseline: input library; direction: higher = stronger binding; endpoint: 6-mer enrichment (R)
Target: TAR DNA-binding protein 43, full length, His tag (TARDBP, Homo sapiens, UniProt Q13148, residues 1-414)
UUGGGG: 3.44
UGUUGA: 0.826
CCGGAU: 0.767
CGUGCA: 0.853
ACUUUG: 0.634
CGCUAA: 0.64
AUAAGU: 0.706
CAGAUU: 0.576
GAGCCA: 0.935
CUCUGA: 0.589
CGCUUC: 0.587
AUGUCA: 0.636
CGAGGC: 1.46
GUUUCC: 0.619
CUAAUA: 0.708
GGCUCU: 0.853
UAAGUU: 0.597
UAUUCC: 0.566
GAGACC: 0.88
UAAACA: 0.607
GGGGCU: 3.75
CGUCUG: 0.783
CUCUUU: 0.612
CGGCGA: 1.45
UAACCA: 0.613

For quick reference, copied from above (set 4):
CUAAUA: 0.708
CCGGAU: 0.767
CGCUAA: 0.64
GAGCCA: 0.935
CGAGGC: 1.46
UGUUGA: 0.826
GGCUCU: 0.853
CGUGCA: 0.853
GUUUCC: 0.619
GAGACC: 0.88
